{"data": "Measured values from different studies", "note": "Compare with care: the assays were run in different laboratories. “And” joins repeats or separate records; there may be more than shown. ± gives the spread as reported.", "sequence of UniProt Q86Z02 (whole entry, looked up)": "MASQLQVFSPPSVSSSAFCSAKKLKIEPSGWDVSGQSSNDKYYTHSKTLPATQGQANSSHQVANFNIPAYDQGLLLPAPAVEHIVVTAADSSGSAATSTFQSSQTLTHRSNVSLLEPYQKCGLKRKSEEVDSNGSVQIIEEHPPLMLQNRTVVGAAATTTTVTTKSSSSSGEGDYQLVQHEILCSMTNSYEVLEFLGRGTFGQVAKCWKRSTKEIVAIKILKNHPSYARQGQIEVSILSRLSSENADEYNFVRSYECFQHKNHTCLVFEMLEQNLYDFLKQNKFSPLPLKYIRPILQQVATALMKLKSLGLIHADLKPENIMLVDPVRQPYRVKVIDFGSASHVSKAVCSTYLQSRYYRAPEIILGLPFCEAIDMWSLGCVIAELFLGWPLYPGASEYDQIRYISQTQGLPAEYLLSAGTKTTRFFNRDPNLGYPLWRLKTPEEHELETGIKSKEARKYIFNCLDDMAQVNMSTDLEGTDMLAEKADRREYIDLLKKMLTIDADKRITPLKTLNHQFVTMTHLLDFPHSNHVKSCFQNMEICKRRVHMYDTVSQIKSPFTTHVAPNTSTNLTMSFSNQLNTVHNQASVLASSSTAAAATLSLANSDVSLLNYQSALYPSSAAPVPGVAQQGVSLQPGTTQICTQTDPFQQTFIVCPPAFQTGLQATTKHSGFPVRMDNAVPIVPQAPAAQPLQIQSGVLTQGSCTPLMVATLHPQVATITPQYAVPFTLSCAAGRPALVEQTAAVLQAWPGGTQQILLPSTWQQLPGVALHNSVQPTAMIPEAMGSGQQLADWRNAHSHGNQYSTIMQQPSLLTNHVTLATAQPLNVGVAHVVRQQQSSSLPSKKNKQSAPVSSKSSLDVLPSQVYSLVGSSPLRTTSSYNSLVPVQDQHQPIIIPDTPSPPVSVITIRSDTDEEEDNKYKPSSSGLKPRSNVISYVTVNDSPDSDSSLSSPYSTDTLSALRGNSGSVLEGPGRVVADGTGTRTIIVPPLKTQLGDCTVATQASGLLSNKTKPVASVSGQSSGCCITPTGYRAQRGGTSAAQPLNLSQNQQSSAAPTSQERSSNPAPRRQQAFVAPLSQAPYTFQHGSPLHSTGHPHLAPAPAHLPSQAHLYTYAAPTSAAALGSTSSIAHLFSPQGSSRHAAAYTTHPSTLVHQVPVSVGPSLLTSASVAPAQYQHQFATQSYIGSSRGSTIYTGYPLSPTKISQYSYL", "sequence of UniProt Q12769 (whole entry, looked up)": "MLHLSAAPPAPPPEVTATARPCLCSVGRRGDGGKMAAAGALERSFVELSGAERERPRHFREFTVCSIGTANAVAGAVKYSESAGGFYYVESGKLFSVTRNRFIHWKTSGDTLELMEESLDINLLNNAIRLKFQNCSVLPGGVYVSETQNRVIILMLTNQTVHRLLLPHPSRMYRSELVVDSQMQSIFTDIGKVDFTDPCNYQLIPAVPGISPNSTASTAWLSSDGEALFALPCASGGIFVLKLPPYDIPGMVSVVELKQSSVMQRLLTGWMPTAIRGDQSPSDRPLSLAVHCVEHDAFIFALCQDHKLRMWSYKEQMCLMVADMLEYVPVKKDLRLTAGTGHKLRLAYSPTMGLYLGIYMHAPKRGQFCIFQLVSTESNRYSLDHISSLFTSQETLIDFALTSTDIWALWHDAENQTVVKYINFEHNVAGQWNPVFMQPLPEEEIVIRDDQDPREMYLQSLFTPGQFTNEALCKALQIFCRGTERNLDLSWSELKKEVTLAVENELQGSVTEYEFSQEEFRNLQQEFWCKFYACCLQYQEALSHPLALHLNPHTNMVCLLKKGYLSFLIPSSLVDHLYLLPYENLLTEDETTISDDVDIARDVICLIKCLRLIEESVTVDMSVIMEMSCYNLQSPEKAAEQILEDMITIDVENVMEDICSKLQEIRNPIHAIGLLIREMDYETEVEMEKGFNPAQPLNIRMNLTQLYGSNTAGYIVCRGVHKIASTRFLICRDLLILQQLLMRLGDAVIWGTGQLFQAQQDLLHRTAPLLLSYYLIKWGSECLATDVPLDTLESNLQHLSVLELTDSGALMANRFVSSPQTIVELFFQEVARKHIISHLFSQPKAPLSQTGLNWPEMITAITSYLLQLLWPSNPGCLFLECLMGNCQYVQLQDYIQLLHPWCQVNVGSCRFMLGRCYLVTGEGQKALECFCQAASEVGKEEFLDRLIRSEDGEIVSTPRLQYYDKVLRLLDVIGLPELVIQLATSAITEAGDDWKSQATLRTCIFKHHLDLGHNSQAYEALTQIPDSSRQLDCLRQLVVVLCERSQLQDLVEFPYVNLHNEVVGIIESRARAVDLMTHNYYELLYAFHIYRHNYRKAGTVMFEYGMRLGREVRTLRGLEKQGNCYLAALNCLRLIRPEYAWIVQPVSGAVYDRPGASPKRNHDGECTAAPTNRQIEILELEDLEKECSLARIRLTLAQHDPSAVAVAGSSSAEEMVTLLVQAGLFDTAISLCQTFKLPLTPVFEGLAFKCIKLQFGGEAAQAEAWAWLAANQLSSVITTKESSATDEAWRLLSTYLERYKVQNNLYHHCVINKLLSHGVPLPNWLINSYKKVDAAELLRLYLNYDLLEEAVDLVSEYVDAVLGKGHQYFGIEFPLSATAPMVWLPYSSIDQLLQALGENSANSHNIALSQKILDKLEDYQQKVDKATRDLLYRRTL", "sequence of UniProt P10768 (whole entry, looked up)": "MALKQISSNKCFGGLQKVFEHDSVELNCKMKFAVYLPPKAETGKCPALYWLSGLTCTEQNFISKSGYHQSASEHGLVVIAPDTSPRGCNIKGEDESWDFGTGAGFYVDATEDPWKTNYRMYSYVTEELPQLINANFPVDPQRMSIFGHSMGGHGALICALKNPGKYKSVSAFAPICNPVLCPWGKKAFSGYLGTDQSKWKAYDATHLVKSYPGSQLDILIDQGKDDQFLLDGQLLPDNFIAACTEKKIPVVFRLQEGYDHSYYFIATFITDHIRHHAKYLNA"}
{"SMILES": "CCCc1nc(N)[nH]c(=O)c1Br", "tested on": "HeLa", "test": "cell morphology alteration", "measurement": "minimum cytotoxic concentration", "result": "> 100 µM"}
{"SMILES": "O=C(c1ccc(Cl)cc1)N1CCN2C(=O)N(OC(=O)N3CCOc4ccccc43)C(=O)C2C1 (stereo not shown)", "tested on": "S-formylglutathione hydrolase (Homo sapiens, UniProt P10768)", "test": "enzyme activity, inhibitor, MS-based ABPP", "system": "SW-620 in situ", "setting": "10 µM, 2 h, 37 °C", "how to read": "reference: compound over DMSO, lower = stronger inhibition", "measurement": "median ratio", "result": 1.01}
{"SMILES": "CC[C@H](C)[C@H](N)C(=O)N[C@H](C(=O)N[C@@H](Cc1ccccc1)C(=O)N[C@@H](Cc1c[nH]cn1)C(=O)N[C@H](C(=O)N[C@@H](CCCCN)C(=O)N[C@@H](CCCCN)C(=O)N[C@@H](CCCCN)C(=O)N[C@@H](CC(C)C)C(=O)N[C@@H](CO)C(=O)N[C@H](C(=O)N[C@@H](CS)C(=O)N[C@@H](C)C(=O)N[C@@H](CC(N)=O)C(=O)N1CCC[C@H]1C(=O)N[C@@H](CCCCN)C(=O)N[C@@H](CCC(N)=O)C(=O)N[C@H](C(=O)N[C@@H](Cc1c[nH]c2ccccc12)C(=O)N[C@H](C(=O)N[C@@H](CCCCN)C(=O)N[C@@H](Cc1ccc(O)cc1)C(=O)N[C@H](C(=O)N[C@H](C(=O)N[C@@H](CCCNC(=N)N)C(=O)N[C@@H](CC(C)C)C(=O)N[C@@H](CC(C)C)C(=O)N[C@@H](CO)C(=O)N[C@@H](CCCCN)C(=O)N[C@@H](CCCCN)C(=O)N[C@H](C(=O)N[C@@H](CCCCN)C(=O)O)C(C)C)C(C)C)[C@@H](C)CC)C(C)C)[C@@H](C)O)C(C)C)[C@@H](C)O)[C@@H](C)CC", "tested on": "PMA-differentiated THP-1", "test": "cell viability, MTT", "setting": "24 h", "measurement": "CC50", "result": "9.69 µM"}
{"SMILES": "CC(C)C[C@H](NC(=O)[C@H](C)NC(=O)[C@@H](NC(=O)[C@H](CCCNC(=N)N)NC(=O)[C@H](CC(C)C)NC(=O)[C@H](Cc1c[nH]c2ccccc12)NC(=O)[C@@H]1CCCN1C(=O)[C@@H](N)CCCCN)C(C)C)C(=O)N[C@@H](CS)C(=O)N1CCC[C@H]1C(=O)NCC(=O)O", "tested on": "Vero", "test": "WST-1", "setting": "16 µM, 24 h", "measurement": "viability", "result": "99.7% and 76.5% and 103%"}
{"SMILES": "CC(=O)N1CCC(C(=O)N2CCN3C(=O)c4cc(-c5ccccc5)ccc4NC(=O)C3C2)CC1 (stereo not shown)", "tested on": "Salmonella typhimurium", "system": "TA98", "setting": "15.8 µg/plate", "measurement": "revertants per plate", "result": 27}
{"SMILES": "O=C1Nc2ccccc2/C1=C1\\Nc2ccccc2\\C1=N/O", "tested on": "Caco-2-F03", "measurement": "CC50", "result": "> 20 µM"}
{"SMILES": "CC(C)[C@H](NC(=O)[C@H](CCCNC(=N)N)NC(=O)[C@H](Cc1c[nH]c2ccccc12)NC(=O)[C@H](CCCNC(=N)N)NC(=O)[C@H](Cc1c[nH]c2ccccc12)NC(=O)[C@H](Cc1c[nH]c2ccccc12)NC(=O)[C@H](Cc1c[nH]c2ccccc12)NC(=O)[C@H](CCCNC(=N)N)NC(=O)[C@H](Cc1c[nH]c2ccccc12)NC(=O)[C@@H](N)CCCNC(=N)N)C(N)=O", "tested on": "PK-15", "measurement": "LC50", "result": "> 512 µM"}
{"SMILES": "C[C@H]1CN(c2n[nH]c3nc(N[C@H]4CC[C@H](NS(=O)(=O)CCC(F)(F)F)CC4)ncc23)CCO1", "tested on": "Nuclear pore complex protein Nup160 (Homo sapiens, UniProt Q12769)", "test": "Kinobeads competition, measured: NUP160", "setting": "0.8 µM, unit not given", "how to read": "reference: vehicle", "measurement": "remaining binding", "result": 1.09}
{"SMILES": "COc1ccc(N2C(=O)N(c3c(C)cccc3Cl)Cc3cnc(Nc4ccc(C5CCN(C)CC5)cc4OC)nc32)nc1", "tested on": "Homeodomain-interacting protein kinase 1 (HIPK1, Homo sapiens, UniProt Q86Z02)", "test": "kinase activity", "setting": "0.5 µM", "measurement": "inhibition", "result": "4.54%"}
{"SMILES": "Oc1ccc(C(c2ccc(O)cc2)(C(F)(F)F)C(F)(F)F)cc1", "tested on": "HepG2 spheroids, dissociated", "test": "annexin V-FITC/PI flow cytometry", "setting": "0.01 µM, 96 h", "measurement": "late apoptotic cells", "result": "22.3 ± 9.2%"}
{"SMILES": "Cc1ccc(NC(=O)c2cc3c(=O)n4cccc(C)c4nc3n2C)cc1Cl", "tested on": "Vero", "test": "MTT", "setting": "100 µM, 24 (unit not given)", "measurement": "viability", "result": "48%"}
{"SMILES": "Cc1cc(C(C)(C)c2ccc(O)c(C)c2)ccc1O", "tested on": "HepG2 spheroids", "test": "annexin V-FITC/PI flow cytometry", "setting": "40 µM, 24 h", "measurement": "necrotic cells", "result": "5.49 ± 1.49%"}
{"SMILES": "CC(=O)c1c(O)c(C)c(O)c2c1OC1=CC(=O)C(=C(C)NCCCC(=O)O)C(=O)C12C (stereo not shown)", "tested on": "L6 rat skeletal myoblasts", "test": "cytotoxicity, Alamar Blue", "measurement": "IC50", "result": "39.8 µM"}
{"SMILES": "CO[C@H]1C[C@@H]2CC[C@@H](C)[C@@](O)(O2)C(=O)C(=O)N2CCCC[C@H]2C(=O)O[C@H]([C@H](C)C[C@@H]2CC[C@@H](OC(=O)NCCOCCOCCOCCOCCOCCOCCOCCOCCC(=O)N3CCc4cc(Cn5nc(-c6ccc7oc(N)nc7c6)c6c(N)ncnc65)ccc4C3)[C@H](OC)C2)C[C@@H](O)[C@H](C)/C=C(\\C)[C@@H](O)[C@@H](OC)C(=O)[C@H](C)C[C@H](C)/C=C/C=C/C=C/1C", "system": "patients with advanced solid tumours", "setting": "intravenous, 6 mg weekly, any grade", "measurement": "anaemia incidence", "result": "25%"}
{"SMILES": "CC[C@H](C)[C@@H]1NC(=O)[C@@H]2CCCN2C(=O)[C@H](CC(C)C)NC(=O)[C@H](CC(C)C)NC(=O)CNC(=O)[C@@H](NC(=O)[C@@H](NC(=O)[C@H](CC(=O)O)NC(=O)CNC(=O)[C@@H](NC(=O)[C@H](C)NC(=O)CNC(=O)[C@H](CCCCN)NC(=O)[C@H](CC(C)C)NC(=O)[C@H](CC(C)C)NC(=O)[C@H](CCCCN)NC(=O)CNC(=O)[C@@H](NC(=O)[C@@H](N)CC(C)C)C(C)C)C(C)C)C(C)C)CSSC[C@@H](C(=O)O)NC1=O", "test": "RNA-seq, measured: Def6", "system": "mouse, traumatic brain injury model, frontal cortex and hippocampus", "setting": "dose not given", "how to read": "reference: TBI alone", "measurement": "log2 fold change", "result": -1.73}
{"SMILES": "CC(=N)S", "tested on": "THLE-2, 3D culture", "test": "MTT", "setting": "400 µM, 72 h", "measurement": "viability", "result": "75.8%"}
{"SMILES": "O=S(=O)(c1ccc(O)cc1)c1ccc(O)cc1", "tested on": "HepG2 spheroids", "test": "annexin V-FITC/PI flow cytometry", "setting": "1 µM, 96 h", "measurement": "late apoptotic cells", "result": "38.2 ± 4.7%"}
{"SMILES": "O=c1ccc2ccccc2o1", "tested on": "HepG2", "test": "measured: heme oxygenase 1", "setting": "concentration not given, 6 h", "measurement": "probability of response", "result": "13.5%"}
{"SMILES": "Cn1c(C(=O)Nc2ccc3c(c2)OCCO3)cc2c(=O)n3ccccc3nc21", "tested on": "Vero", "test": "MTT", "setting": "25 µM, 24 (unit not given)", "measurement": "viability", "result": "55.3%"}
{"note": "Repeated from above:"}
{"SMILES": "CC(=O)c1c(O)c(C)c(O)c2c1OC1=CC(=O)C(=C(C)NCCCC(=O)O)C(=O)C12C (stereo not shown)", "tested on": "L6 rat skeletal myoblasts", "test": "cytotoxicity, Alamar Blue", "measurement": "IC50", "result": "39.8 µM"}
{"SMILES": "CCCc1nc(N)[nH]c(=O)c1Br", "tested on": "HeLa", "test": "cell morphology alteration", "measurement": "minimum cytotoxic concentration", "result": "> 100 µM"}
{"SMILES": "Oc1ccc(C(c2ccc(O)cc2)(C(F)(F)F)C(F)(F)F)cc1", "tested on": "HepG2 spheroids, dissociated", "test": "annexin V-FITC/PI flow cytometry", "setting": "0.01 µM, 96 h", "measurement": "late apoptotic cells", "result": "22.3 ± 9.2%"}
